Assay results collected from several papers.
Numbered parts are unrelated; each lists some results of a single study. “And” joins repeats or separate records; there may be more than shown.
Chain of UniProt P11247 (whole entry, looked up): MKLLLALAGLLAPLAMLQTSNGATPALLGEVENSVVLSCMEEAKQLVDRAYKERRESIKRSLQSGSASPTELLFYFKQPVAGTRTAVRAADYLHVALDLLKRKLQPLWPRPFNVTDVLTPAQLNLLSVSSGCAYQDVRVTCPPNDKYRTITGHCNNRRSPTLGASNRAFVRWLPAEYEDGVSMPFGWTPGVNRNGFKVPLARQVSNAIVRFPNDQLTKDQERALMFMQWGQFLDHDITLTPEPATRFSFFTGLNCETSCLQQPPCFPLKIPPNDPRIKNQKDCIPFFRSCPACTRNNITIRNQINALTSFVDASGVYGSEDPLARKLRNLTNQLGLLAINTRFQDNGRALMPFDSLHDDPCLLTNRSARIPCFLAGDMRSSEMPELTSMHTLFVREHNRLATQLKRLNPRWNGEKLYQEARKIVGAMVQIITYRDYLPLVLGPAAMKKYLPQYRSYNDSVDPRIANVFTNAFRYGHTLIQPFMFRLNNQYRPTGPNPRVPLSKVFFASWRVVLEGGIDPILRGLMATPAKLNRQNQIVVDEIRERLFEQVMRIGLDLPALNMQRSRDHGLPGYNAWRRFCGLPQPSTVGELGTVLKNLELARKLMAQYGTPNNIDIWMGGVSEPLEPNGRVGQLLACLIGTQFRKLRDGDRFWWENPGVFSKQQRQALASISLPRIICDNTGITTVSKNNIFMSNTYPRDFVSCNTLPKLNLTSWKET
Chain of UniProt Q96SW2 (whole entry, looked up): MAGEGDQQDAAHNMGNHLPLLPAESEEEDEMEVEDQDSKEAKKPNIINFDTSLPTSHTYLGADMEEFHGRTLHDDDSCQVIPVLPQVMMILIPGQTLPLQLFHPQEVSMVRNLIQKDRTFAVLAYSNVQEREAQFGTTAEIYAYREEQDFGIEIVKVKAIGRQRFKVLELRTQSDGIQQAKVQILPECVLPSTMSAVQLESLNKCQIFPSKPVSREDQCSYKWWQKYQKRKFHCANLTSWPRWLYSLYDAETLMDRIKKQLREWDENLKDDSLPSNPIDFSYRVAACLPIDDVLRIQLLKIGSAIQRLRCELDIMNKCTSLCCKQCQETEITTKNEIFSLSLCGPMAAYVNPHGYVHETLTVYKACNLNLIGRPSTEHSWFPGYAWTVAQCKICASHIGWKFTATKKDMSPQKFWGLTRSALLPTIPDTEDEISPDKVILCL
Chain of UniProt Q8IW41 (whole entry, looked up): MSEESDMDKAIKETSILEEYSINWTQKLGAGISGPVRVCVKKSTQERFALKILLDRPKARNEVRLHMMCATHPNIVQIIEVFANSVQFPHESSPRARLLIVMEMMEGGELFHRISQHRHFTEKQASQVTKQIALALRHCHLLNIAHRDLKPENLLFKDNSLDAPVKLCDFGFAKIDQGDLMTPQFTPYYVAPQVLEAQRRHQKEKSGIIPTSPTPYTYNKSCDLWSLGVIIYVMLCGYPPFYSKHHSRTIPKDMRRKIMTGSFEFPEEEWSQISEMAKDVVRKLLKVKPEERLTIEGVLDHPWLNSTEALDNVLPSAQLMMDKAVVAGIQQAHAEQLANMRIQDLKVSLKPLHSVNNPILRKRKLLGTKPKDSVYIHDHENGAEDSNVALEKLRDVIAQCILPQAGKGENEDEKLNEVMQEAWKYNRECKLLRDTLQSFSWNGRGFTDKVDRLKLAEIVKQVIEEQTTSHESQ
Chain of UniProt Q15835 (whole entry, looked up): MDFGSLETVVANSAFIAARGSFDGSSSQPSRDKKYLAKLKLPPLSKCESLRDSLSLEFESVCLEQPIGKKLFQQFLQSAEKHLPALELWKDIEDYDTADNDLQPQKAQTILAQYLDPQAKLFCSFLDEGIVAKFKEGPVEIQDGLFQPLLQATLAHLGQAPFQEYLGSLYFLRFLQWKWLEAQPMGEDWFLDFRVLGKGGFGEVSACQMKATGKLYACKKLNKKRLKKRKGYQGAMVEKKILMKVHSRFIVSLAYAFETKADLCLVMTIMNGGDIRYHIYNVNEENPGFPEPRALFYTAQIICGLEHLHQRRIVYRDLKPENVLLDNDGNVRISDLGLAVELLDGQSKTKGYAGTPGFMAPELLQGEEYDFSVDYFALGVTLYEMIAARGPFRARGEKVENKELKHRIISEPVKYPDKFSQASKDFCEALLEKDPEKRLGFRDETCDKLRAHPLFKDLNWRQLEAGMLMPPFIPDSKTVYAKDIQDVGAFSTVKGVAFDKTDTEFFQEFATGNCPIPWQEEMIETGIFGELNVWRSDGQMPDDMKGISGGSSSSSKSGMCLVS

Study 1 — technique: DNA microarray; reference: untreated cells
SMILES: COCC1CC2C(CCC3(C)C(O)CCC23)c2ccc(O)cc21 (centres unmarked)
cell line	test	conditions	log2 fold change
PANC-1	measured: GAPDH	concentration not given, lower dose arm	0.443 and 0.424 and 0.486 and 0.428 and 0.502
PANC-1	measured: MCM4	concentration not given	-0.85
PANC-1	measured: KIF20A	concentration not given, higher dose arm	-1.88 and -1.87 and -1.86 and -1.84
A549	measured: TMEM108	50 µM	3.83
A549	measured: MCM7	50 µM	-0.387
PANC-1	measured: ACTA2	concentration not given, higher dose arm	-0.398
PANC-1	measured: CDCA8	concentration not given, lower dose arm	-0.736
PANC-1	measured: GADD45A	concentration not given, lower dose arm	-0.108

Study 2 — cell line: U-87 MG; concentration: concentration not given; reference: DMSO
SMILES: CCN1/C(=C/C=C2\CCCC(/C=C/C3=[N+](CC)c4ccccc4C3(C)C)=C2NCCCCCCCCN2CCC(Nc3nc4ccccc4n3Cc3ccc(F)cc3)CC2)C(C)(C)c2ccccc21
test	log2 fold change
measured: FAM110B mRNA	2.01
measured: SLFN5 mRNA	1.01
measured: TNFRSF19 mRNA	-1.65
measured: MYO7B mRNA	-3.47
measured: KIFC1 mRNA	-2.51
measured: HOXB4 mRNA	-1.08
measured: PCDH9 mRNA	1.77
measured: MCM3 mRNA	-1.59
measured: H2AC18 mRNA	1.41
measured: ASB7 mRNA	0.889
measured: ZDHHC12 mRNA	-1.09
measured: ESPL1 mRNA	-2.18
measured: ARID5A mRNA	1.59
measured: WNT5B mRNA	-2.44
measured: TMEM251 mRNA	1.19
measured: DNAJC1 mRNA	0.938

Study 3 — observed: thermal unfolding; technique: differential scanning fluorimetry; concentration: 5.5 µM; reading: higher = more unfolded
Compound: C[C@@H]1CN(c2ccc(-c3cc(C(=O)NCCOCCOCCOCCOCCOCCOCCNC(=O)/C=C/c4[nH]cc(C(=O)N[C@@H](CC(N)=O)c5ccc(F)c(Cl)c5)c4-c4ccc(Cl)cc4F)ccc3F)cc2NC(=O)c2ccc(F)cc2C(F)(F)F)C[C@H](C)N1C
WDR5: WD repeat-containing protein 5 (WDR5, Homo sapiens, UniProt P61964)
DCAF1: DDB1- and CUL4-associated factor 1 (DCAF1, Homo sapiens, UniProt Q9Y4B6)
Chain of UniProt Q9Y4B6 (whole entry, looked up): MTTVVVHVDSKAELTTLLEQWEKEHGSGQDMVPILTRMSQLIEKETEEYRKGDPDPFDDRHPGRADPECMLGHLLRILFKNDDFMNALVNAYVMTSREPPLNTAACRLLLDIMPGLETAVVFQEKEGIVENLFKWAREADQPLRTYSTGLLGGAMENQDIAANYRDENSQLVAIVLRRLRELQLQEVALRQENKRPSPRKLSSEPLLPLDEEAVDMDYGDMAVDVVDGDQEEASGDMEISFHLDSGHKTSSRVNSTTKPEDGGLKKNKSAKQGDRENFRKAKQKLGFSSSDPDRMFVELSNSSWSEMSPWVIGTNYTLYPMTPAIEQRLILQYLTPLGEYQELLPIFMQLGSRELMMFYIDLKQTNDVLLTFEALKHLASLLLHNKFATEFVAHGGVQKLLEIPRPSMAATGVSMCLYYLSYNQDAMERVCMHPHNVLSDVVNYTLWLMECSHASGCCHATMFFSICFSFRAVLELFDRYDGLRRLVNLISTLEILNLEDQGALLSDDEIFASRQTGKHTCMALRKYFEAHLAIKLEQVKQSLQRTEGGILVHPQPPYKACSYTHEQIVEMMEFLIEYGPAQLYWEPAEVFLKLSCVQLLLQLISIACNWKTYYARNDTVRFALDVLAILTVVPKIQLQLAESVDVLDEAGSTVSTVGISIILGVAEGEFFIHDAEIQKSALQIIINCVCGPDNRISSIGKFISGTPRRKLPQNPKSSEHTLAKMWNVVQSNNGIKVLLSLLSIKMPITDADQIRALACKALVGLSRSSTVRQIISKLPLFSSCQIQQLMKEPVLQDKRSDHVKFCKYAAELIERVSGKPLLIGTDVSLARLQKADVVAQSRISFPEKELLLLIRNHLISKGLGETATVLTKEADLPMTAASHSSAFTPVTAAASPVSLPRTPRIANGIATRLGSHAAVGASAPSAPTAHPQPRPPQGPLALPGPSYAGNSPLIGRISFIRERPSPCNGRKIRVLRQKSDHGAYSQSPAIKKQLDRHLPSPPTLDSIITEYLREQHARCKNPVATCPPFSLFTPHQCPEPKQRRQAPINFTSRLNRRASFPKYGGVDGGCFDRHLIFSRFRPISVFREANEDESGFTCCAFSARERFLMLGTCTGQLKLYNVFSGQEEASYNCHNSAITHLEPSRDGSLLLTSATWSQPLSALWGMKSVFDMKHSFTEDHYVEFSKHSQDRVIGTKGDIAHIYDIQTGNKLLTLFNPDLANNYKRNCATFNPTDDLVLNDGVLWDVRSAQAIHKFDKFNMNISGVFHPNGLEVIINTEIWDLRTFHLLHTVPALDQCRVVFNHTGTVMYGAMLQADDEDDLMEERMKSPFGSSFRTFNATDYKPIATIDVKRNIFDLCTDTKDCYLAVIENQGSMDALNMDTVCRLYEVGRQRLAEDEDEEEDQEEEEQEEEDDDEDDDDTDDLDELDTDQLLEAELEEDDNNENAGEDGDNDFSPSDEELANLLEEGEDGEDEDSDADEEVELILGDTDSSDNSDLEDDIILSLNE
target	conditions	SYPRO Orange fluorescence [a.u.]
WDR5	86.01 °C	60700
WDR5	25 °C	13200
DCAF1	89.41 °C	32800
DCAF1	91.01 °C	31600
WDR5	87.01 °C	59300
DCAF1	83.81 °C	37000
WDR5	71.21 °C	32100
WDR5	47.2 °C	15200
WDR5	46.6 °C	15000
WDR5	30.8 °C	13600
DCAF1	46.6 °C	15400

Study 4 — observed: binding; mode: competitor; technique: NanoBRET; cells: HEK293
Compound: CN1CCC[C@H]1COc1nc2c(c(N3CCN(C(=O)C4CC4)[C@@H](CC#N)C3)n1)CCN(c1cccc3cccc(Cl)c13)C2
KRAS Q61L: GTPase KRas (KRAS, Homo sapiens, UniProt P01116, Q61L)
KRAS Q61R: GTPase KRas (KRAS, Homo sapiens, UniProt P01116, Q61R)
target	conditions	normalized BRET
KRAS Q61L	3.7 µM	57.7% and 55.1% and 45.6%
KRAS Q61R	1.69 nM	99.3% and 88.5% and 94.3%
KRAS Q61R	11.1 µM	100% and 72.6% and 72.1%
KRAS Q61L	1.69 nM	92% and 97.8% and 98.2%

Study 5
Compound: Cc1ccc(O)c(C)c1-c1cnc2[nH]c(-c3cnc(N4CCC5(CC4)CC(N4CCN(c6ccc(N[C@H]7CCC(=O)NC7=O)cc6F)CC4)CO5)nc3)cc2c1C#N (single isomer, unassigned)
PKMYT1: Membrane-associated tyrosine- and threonine-specific cdc2-inhibitory kinase (PKMYT1, Homo sapiens, UniProt Q99640)
Chain of UniProt Q99640 (whole entry, looked up): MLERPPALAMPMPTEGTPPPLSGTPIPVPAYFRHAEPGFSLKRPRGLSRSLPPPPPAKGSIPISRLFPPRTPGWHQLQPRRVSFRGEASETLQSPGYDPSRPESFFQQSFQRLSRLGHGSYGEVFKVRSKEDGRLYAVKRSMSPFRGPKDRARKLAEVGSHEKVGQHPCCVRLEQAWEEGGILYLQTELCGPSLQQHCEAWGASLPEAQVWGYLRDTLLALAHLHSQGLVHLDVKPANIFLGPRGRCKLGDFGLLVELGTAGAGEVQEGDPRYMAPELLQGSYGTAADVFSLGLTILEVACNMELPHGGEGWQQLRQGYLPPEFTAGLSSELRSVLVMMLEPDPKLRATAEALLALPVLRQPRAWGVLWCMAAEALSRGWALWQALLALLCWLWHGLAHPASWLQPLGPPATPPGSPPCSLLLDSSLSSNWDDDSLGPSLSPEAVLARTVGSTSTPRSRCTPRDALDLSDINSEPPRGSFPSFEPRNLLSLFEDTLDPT
tested on	test	conditions	inhibition
PKMYT1	binding, HTRF	1.52 nM	23.9% and 26.8%
Protein cereblon (CRBN, Homo sapiens, UniProt Q96SW2)	binding	13.72 nM	7.65% and 8.99%
PKMYT1		41.15 nM	94.7% and 93%
PKMYT1		3333.33 nM	101% and 99.5%
PKMYT1		0.1235 µM	95.5%
NCI-H1568	cell proliferation	1.524 nM	-3.34% and 0.26% and -0.23%
NCI-H1568	cell proliferation	10000 nM	88.5% and 87.5%
PKMYT1		0.3704 µM	97.6%
PKMYT1	enzyme activity, inhibitor	508.1 pM	10.2%
HCC1806	cell proliferation	4.572 nM	-4.34% and -2.8% and -0.86%
PKMYT1		0.00015 µM	-4.07% and -4.26%
PKMYT1		0.1111 µM	94.8%

Study 6 — concentration: 1 µM
Structure (SMILES): CC[C@@]1(c2ccccc2)C2=C(CC(C)(C)CC2=O)Nc2n[nH]cc21
target	test	scale	remaining binding [%]
Ribosomal protein S6 kinase alpha-3, N-terminal kinase domain (RPS6KA3, Homo sapiens, UniProt P51812)	kinase binding, KINOMEscan	reference: DMSO control	100
PIK3CA (Homo sapiens, UniProt P42336, E545A)	kinase binding, KINOMEscan	reference: DMSO control	92
CAMK4 (Homo sapiens, UniProt Q16566)	binding, competition with immobilised ligand		100
COQ8A (Homo sapiens, UniProt Q8NI60)	kinase binding, KINOMEscan	reference: DMSO control	100
CASK (Homo sapiens, UniProt O14936)	kinase binding, KINOMEscan	reference: DMSO control	96
BMP2K (Homo sapiens, UniProt Q9NSY1)	binding, competition with immobilised ligand		58
Tyrosine-protein kinase ABL1, phosphorylated (ABL1, Homo sapiens, UniProt P00519, M351T)	kinase binding, KINOMEscan	reference: DMSO control	100
DCLK1 (Homo sapiens, UniProt O15075)	binding, competition with immobilised ligand		88
STK38 (Homo sapiens, UniProt Q15208)	kinase binding, KINOMEscan	reference: DMSO control	84
PIKFYVE (Homo sapiens, UniProt Q9Y2I7)	kinase binding, KINOMEscan	reference: DMSO control	100
MAP3K14 (Homo sapiens, UniProt Q99558)	binding, competition with immobilised ligand		100
CAMKK1 (Homo sapiens, UniProt Q8N5S9)	kinase binding, KINOMEscan	reference: DMSO control	88
DYRK2 (Homo sapiens, UniProt Q92630)	binding, competition with immobilised ligand		100
PIK3CB (Homo sapiens, UniProt P42338)	kinase binding, KINOMEscan	reference: DMSO control	100
CHEK1 (Homo sapiens, UniProt O14757)	binding, competition with immobilised ligand		91
PIK3C2B (Homo sapiens, UniProt O00750)	binding, competition with immobilised ligand		100
MAPKAPK5 (Homo sapiens, UniProt Q8IW41)	binding, competition with immobilised ligand		100
MARK4 (Homo sapiens, UniProt Q96L34)	kinase binding, KINOMEscan	reference: DMSO control	100

Study 7 — observed: binding; technique: competition with immobilised ligand; concentration: 1 µM
Structure (SMILES): COc1cc(-c2nc3ccc(C(=O)NCCCN(C)C)cc3n2C2CCC2)cc(OC)c1OC
target	remaining binding [%]
IKBKB (Homo sapiens, UniProt O14920)	85
ERN1 (Homo sapiens, UniProt O75460)	63
EPHA2 (Homo sapiens, UniProt P29317)	86
MAP3K7 (Homo sapiens, UniProt O43318)	100
MAPK14 (Homo sapiens, UniProt Q16539)	83
WEE2 (Homo sapiens, UniProt P0C1S8)	52
CDK16 (Homo sapiens, UniProt Q00536)	98
PIM1 (Homo sapiens, UniProt P11309)	80
ERBB3 (Homo sapiens, UniProt P21860)	55
DYRK1B (Homo sapiens, UniProt Q9Y463)	82
MYLK2 (Homo sapiens, UniProt Q9H1R3)	88
EIF2AK1 (Homo sapiens, UniProt Q9BQI3)	71
AKT1 (Homo sapiens, UniProt P31749)	100
FGR (Homo sapiens, UniProt P09769)	100
GRK1 (Homo sapiens, UniProt Q15835)	90
MAP2K4 (Homo sapiens, UniProt P45985)	100

Other studies, line by line
MPO: Myeloperoxidase (MPO, Homo sapiens, UniProt P05164)
Chain of UniProt P05164 (whole entry, looked up): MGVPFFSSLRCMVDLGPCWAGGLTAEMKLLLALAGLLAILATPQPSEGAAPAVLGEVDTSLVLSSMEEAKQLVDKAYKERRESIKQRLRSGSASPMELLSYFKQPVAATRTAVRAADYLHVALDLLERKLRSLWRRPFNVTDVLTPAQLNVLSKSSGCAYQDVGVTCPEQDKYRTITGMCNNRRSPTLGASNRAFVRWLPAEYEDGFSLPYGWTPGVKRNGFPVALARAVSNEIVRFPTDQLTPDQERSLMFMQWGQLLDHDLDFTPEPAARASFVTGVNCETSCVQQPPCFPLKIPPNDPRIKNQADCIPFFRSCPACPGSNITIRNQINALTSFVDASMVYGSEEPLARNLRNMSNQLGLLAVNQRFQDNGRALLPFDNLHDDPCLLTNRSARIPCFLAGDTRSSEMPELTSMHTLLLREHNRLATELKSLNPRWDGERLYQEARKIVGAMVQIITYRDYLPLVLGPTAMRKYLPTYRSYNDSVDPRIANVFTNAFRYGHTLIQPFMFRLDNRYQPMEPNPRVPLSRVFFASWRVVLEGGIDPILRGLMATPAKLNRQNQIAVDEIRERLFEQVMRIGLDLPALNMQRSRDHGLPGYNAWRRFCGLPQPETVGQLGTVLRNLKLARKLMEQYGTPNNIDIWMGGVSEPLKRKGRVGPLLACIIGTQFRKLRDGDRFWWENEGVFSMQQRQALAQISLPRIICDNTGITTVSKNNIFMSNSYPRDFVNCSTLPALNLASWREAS
SMILES	tested on	test	test system	conditions	scale	endpoint	result
Cc1ncsc1-c1ccc(C(CO)NC(=O)C2CC(O)CN2C(=O)C(NC(=O)c2ccc(COc3c(-c4c(C)c(F)cc5[nH]ncc45)c(C4CC4)cc4c(N5CC6CC5CN6)nc(OC5CCOCC5)nc34)cc2)C(C)C)cc1 (centres unmarked)	von Hippel-Lindau disease tumor suppressor, with Elongin B/C (VHL, Homo sapiens, UniProt P40337)	SPR, single-cycle	immobilized VCB complex	binary		Kd	135 nM and 97.9 nM and 108 nM
NC/C(=C\F)COc1ccc(-c2cc(=O)[nH]c(=S)n2CC(N)=O)c(Cl)c1	MPO	enzyme activity, inhibitor, fluorescence		2.3 nM		inhibition	-1.64% and -7.54%
CCN1CCN(Cc2ccc(COc3c(-c4c(C)c(F)cc5[nH]ncc45)c(C4CC4)cc4c(N5C[C@@H]6C[C@H]5CN6)nc(OC5CCOCC5)nc34)cc2)C(=O)C1	AsPC-1 (KRAS G12D)	CellTiter-Glo		1 µM		viability	16.3% and 19.4% and 18.7% and 17.6%
NC/C(=C\F)COc1cccc(Cn2c(=S)[nH]c(=O)c3[nH]cnc32)c1	Myeloperoxidase (Mus musculus, UniProt P11247)	ELISA, measured: myeloperoxidase	mice, zymosan or thioglycolate peritonitis, peritoneal lavage	60 mg/kg		protein level	2540 ng/mL and 1920 ng/mL and 2610 ng/mL
Ic1ccc(Nc2nc(NCCc3c[nH]c4ccccc34)nc(N3CCOCC3)n2)cc1	L444P/L444P Gaucher fibroblasts	4-MUG hydrolysis in lysate		1 µM, 72 h	reference: vehicle	enzyme activity	175% and 181% and 184% and 193%
NC/C(=C\F)COc1ccc(C(F)(F)F)c(Cn2c(=S)[nH]c(=O)c3[nH]cnc32)c1	MPO	enzyme activity		0.0412 µM		inhibition	41.3% and 43.2%
Cc1ncsc1-c1ccc(C2(NC(=O)C3CC(O)CN3C(=O)C(NC(=O)c3ccc(COc4c(-c5c(C)c(F)cc6[nH]ncc56)c(C5CC5)cc5c(N6CC7CC6CN7)nc(OC6CCOCC6)nc45)cc3)C(C)(C)C)CC2)cc1 (centres unmarked)	GTPase KRas, GDP-bound (KRAS, Homo sapiens, UniProt P01116, G12D)	binder, single-cycle SPR		binary, without VCB		dissociation rate constant (kd)	0.014 s⁻¹ and 0.0179 s⁻¹ and 0.015 s⁻¹
CCOc1ccc2nc(Sc3nc(Nc4ccc(I)cc4)nc(N4CCOCC4)n3)sc2c1	Gaucher fibroblasts	qPCR, measured: GBA1 mRNA		10 µM, unit not given	reference: vehicle	mRNA level	1.6 and 1.05 and 1.65
Cc1ncsc1-c1ccc(C2(NC(=O)C3CC(O)CN3C(=O)C(NC(=O)c3ccc(COc4c(-c5c(C)c(F)cc6[nH]ncc56)c(C5CC5)cc5c(N6CC7CC6CN7)nc(OC6CCOCC6)nc45)cc3)C(C)C)CC2)cc1 (centres unmarked)	KRAS/VHL, GDP-bound (Homo sapiens, UniProt P01116+P40337, G12D)	SPR, single-cycle	immobilized KRAS G12D	ternary, geometric mean, together with: VCB complex		koff	0.054 s⁻¹
C=C(CN)COc1cccc(Cn2c(=S)[nH]c(=O)c3[nH]cnc32)c1	AOC3 (Homo sapiens, UniProt Q16853)	H2O2 production, inhibitor, Amplex Red		30 µM		inhibition	90.1 % Inhibition

A few entries again (study 3):
target	conditions	SYPRO Orange fluorescence [a.u.]
DCAF1	46.6 °C	15400
DCAF1	89.41 °C	32800
WDR5	46.6 °C	15000
WDR5	25 °C	13200
WDR5	30.8 °C	13600
WDR5	86.01 °C	60700
WDR5	71.21 °C	32100
WDR5	87.01 °C	59300
DCAF1	91.01 °C	31600
WDR5	47.2 °C	15200
DCAF1	83.81 °C	37000
